Experimental data pooled from the literature.
Each numbered part is a random draw from the data of one study; scales do not carry over between parts.
Sequence of UniProt Q9BVS4 (whole entry, looked up): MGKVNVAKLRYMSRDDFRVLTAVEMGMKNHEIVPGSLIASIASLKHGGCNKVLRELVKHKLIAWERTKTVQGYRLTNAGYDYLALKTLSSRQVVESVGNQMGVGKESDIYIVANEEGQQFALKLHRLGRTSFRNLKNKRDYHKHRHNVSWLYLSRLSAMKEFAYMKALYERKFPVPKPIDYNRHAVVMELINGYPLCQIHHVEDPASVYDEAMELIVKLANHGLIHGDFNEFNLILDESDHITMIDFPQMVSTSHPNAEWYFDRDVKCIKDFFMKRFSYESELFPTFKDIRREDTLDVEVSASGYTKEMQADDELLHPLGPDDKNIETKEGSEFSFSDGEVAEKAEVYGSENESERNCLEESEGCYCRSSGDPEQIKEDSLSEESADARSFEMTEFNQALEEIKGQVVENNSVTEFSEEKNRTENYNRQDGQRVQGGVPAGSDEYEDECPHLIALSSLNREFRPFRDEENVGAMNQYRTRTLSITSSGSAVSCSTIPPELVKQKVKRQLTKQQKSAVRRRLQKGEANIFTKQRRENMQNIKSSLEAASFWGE
Sequence of UniProt Q9NRM7 (whole entry, looked up): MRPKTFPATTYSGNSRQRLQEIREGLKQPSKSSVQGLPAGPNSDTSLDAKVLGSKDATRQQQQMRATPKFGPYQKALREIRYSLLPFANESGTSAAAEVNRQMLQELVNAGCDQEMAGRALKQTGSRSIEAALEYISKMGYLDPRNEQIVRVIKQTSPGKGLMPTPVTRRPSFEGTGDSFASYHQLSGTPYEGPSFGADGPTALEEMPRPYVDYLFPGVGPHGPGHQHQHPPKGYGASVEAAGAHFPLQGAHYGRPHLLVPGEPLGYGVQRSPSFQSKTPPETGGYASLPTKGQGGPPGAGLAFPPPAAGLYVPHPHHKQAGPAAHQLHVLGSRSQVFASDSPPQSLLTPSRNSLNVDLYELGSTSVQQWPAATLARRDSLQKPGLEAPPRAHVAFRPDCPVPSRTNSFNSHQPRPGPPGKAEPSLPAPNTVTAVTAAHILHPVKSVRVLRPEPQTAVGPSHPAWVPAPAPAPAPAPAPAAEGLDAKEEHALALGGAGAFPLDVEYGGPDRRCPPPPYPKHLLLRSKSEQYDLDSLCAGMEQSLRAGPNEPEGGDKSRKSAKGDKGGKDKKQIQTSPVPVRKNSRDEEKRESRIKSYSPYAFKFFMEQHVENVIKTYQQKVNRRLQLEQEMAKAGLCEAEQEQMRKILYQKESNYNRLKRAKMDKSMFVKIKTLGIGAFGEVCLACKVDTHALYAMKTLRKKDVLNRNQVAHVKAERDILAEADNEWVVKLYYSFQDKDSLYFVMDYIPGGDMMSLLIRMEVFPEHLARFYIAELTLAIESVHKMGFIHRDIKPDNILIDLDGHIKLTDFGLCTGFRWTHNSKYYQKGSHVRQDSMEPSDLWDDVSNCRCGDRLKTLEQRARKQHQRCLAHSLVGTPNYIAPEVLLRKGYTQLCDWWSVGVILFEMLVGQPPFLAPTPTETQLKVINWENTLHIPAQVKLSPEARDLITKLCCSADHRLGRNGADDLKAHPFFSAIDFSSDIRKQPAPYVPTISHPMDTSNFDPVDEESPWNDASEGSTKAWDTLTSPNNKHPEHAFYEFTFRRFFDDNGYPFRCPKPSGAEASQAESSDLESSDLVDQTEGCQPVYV
Sequence of UniProt Q05397 (whole entry, looked up): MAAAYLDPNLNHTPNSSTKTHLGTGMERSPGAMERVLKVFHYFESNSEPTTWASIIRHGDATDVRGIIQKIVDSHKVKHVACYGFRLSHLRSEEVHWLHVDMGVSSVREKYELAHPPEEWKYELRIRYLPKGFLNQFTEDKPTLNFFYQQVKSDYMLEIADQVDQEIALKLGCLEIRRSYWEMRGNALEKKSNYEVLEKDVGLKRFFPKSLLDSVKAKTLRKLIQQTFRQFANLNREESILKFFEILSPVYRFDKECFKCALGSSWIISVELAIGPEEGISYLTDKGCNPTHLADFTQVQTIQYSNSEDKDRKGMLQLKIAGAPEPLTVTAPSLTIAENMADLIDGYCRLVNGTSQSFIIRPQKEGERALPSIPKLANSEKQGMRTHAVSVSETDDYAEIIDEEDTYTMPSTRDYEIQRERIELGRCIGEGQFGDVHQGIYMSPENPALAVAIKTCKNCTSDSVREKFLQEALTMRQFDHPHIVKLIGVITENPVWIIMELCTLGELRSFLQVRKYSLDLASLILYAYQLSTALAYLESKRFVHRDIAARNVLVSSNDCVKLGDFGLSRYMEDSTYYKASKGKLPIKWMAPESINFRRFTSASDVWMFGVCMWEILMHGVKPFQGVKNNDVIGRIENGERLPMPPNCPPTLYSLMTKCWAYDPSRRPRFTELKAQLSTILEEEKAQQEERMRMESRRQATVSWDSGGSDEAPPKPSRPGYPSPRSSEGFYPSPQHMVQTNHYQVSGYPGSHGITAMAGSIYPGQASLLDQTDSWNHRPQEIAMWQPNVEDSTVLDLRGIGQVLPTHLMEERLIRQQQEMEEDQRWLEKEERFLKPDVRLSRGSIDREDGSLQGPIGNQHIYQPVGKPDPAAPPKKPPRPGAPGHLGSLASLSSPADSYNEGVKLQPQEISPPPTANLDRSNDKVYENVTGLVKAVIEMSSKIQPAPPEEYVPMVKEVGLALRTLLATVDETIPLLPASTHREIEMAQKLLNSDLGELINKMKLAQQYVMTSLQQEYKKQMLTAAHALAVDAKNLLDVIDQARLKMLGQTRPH
Sequence of UniProt Q13705 (whole entry, looked up): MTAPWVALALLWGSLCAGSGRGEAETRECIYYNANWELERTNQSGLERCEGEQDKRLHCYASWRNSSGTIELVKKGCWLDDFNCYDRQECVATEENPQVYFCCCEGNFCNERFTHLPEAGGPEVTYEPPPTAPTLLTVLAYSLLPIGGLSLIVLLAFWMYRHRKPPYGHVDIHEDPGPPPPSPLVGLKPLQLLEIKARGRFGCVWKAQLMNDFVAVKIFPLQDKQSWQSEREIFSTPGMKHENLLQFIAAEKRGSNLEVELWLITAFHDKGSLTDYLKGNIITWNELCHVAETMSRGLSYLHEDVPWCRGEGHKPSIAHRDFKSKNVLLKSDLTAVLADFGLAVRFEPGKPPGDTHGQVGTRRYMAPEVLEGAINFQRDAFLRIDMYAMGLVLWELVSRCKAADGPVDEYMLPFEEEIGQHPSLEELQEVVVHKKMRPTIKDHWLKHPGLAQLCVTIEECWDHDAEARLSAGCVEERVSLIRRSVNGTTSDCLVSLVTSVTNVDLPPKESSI
Sequence of UniProt Q8TF76 (whole entry, looked up): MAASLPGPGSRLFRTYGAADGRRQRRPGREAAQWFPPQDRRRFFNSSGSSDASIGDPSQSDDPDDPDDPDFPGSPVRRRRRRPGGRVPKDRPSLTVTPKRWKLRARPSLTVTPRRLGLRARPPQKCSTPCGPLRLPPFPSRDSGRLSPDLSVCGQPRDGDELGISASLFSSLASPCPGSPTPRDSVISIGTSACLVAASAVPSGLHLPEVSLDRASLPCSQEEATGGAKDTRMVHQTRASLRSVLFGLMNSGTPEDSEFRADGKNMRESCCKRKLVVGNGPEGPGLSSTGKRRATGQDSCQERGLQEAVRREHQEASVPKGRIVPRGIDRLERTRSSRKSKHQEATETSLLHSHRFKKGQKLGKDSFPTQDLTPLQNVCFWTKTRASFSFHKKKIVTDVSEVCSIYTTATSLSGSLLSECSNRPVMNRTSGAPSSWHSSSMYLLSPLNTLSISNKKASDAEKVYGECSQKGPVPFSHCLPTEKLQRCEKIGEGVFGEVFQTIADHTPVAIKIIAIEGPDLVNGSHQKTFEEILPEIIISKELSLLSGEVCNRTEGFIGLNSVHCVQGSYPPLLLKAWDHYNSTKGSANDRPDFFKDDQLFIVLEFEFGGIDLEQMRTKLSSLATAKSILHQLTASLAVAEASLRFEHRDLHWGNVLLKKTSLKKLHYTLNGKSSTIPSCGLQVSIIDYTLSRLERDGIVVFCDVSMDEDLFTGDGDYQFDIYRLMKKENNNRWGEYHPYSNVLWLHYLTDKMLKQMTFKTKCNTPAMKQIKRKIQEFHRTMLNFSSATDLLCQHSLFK
Sequence of UniProt Q8TBX8 (whole entry, looked up): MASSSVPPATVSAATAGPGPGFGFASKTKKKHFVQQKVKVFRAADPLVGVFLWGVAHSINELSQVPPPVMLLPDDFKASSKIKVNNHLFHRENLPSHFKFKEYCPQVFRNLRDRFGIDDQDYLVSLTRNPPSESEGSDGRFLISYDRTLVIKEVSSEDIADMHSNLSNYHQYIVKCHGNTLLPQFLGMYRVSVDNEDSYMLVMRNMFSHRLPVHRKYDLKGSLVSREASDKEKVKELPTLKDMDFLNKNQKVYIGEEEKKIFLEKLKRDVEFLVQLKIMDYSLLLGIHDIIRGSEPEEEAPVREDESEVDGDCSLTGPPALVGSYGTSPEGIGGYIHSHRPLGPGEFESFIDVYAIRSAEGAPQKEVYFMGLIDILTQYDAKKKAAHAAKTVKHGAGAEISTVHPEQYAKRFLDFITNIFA

Block 1 — read-out: cell-free assay; technique: competition with immobilised ligand; tested at: 1 µM
Compound: CO[C@@H](C)c1c(Nc2ccc([C@H](N(C)C(=O)C3CCS(=O)(=O)CC3)C(F)(F)F)cc2)cnc2cc(Cl)nn12
For Serine/threonine-protein kinase LATS2 (LATS2, Homo sapiens, UniProt Q9NRM7): remaining binding read 100%.
For Serine/threonine-protein kinase RIO2 (RIOK2, Homo sapiens, UniProt Q9BVS4): remaining binding read 90%.
The remaining binding was 89% (BMP-2-inducible protein kinase (BMP2K, Homo sapiens, UniProt Q9NSY1)).
Mitogen-activated protein kinase kinase kinase 19 (MAP3K19, Homo sapiens, UniProt Q56UN5) — remaining binding: 91%.
It gave 100% for remaining binding (Serine/threonine-protein kinase OSR1 (OXSR1, Homo sapiens, UniProt O95747)).
For Serine/threonine-protein kinase 10 (STK10, Homo sapiens, UniProt O94804): remaining binding read 100%.
Serine/threonine-protein kinase haspin (HASPIN, Homo sapiens, UniProt Q8TF76) — remaining binding: 100%.
It gave 91% for remaining binding (Phosphatidylinositol 5-phosphate 4-kinase type-2 gamma (PIP4K2C, Homo sapiens, UniProt Q8TBX8)).
For Activin receptor type-2B (ACVR2B, Homo sapiens, UniProt Q13705): remaining binding read 66%.
The remaining binding was 100% (Mitogen-activated protein kinase kinase kinase 12 (MAP3K12, Homo sapiens, UniProt Q12852)).
The remaining binding was 85% (Receptor-type tyrosine-protein kinase FLT3 (FLT3, Homo sapiens, UniProt P36888, D835V/ITD)).
For Focal adhesion kinase 1 (PTK2, Homo sapiens, UniProt Q05397): remaining binding read 85%.
The remaining binding was 100% (Serine/threonine-protein kinase PAK 5 (PAK5, Homo sapiens, UniProt Q9P286)).
It gave 85% for remaining binding (G protein-coupled receptor kinase 4 (GRK4, Homo sapiens, UniProt P32298)).

Block 2 — cell line: mouse MPNST tumor cells; technique: high-content immunofluorescence imaging; measured: nuclear SOX9; tested at: 10 µM; time: 12 h; setting: mean of 2 replicates; relative to: DMSO control; direction: higher = more nuclear SOX9
Under “nuclear SOX9 intensity”, `CC1(C)O[C@@H]2C[C@H]3[C@@H]4CCC5=CC(=O)CC[C@]5(C)[C@@]4(F)[C@@H](O)C[C@]3(C)[C@]2(C(=O)CCl)O1` is recorded as 88.1 % of DMSO.
`O=C(COc1ccc(C(=O)c2ccccc2)cc1)NC1CCN(Cc2ccccc2)CC1` — result for “nuclear SOX9 intensity”: 119 % of DMSO.
`Cc1c(N(C)C)c(=O)n(-c2ccccc2)n1C`: “nuclear SOX9 intensity” 103 % of DMSO.
For `O=C1NCC2(CCN(CCc3ccccc3)CC2)O1`, “nuclear SOX9 intensity” read 92.2 % of DMSO.

Block 3 — read-out: enzyme activity; mode: inhibitor; tested at: 0.5 µM; relative to: control
Target: Calcium/calmodulin-dependent protein kinase kinase 1 (CAMKK1, Homo sapiens, UniProt Q8N5S9)
Sequence of UniProt Q8N5S9 (whole entry, looked up): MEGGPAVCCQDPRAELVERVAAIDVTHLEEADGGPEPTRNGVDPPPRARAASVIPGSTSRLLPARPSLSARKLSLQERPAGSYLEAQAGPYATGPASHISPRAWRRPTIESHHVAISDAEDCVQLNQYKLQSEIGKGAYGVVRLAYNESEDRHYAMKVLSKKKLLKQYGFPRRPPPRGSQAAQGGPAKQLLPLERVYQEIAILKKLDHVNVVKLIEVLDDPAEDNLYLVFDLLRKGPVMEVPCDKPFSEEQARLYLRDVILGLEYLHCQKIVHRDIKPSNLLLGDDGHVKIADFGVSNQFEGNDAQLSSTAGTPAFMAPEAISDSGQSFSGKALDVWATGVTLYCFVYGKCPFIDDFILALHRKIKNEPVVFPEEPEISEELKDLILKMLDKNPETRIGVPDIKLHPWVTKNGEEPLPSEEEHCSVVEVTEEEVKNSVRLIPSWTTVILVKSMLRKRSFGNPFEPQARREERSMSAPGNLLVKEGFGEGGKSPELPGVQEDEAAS
`COc1cc2c(cc1OC)-c1[nH]nc(Nc3cccc(F)c3)c1C2` has a remaining activity of 81.5%.
`Cc1cc2ncc(-c3ccccc3)nc2cc1C` gave a remaining activity of 98%.
With `N#Cc1c(NC(=O)c2cccc3ccccc23)sc2c1CCCC2` the remaining activity was 109%.
`Cn1nc2c3c(cccc31)C(=O)c1ccccc1-2` has a remaining activity of 102%.
The remaining activity of `O=C(NC(NC(=S)Nc1ccc(F)c([N+](=O)[O-])c1)C(Cl)(Cl)Cl)C(c1ccccc1)c1ccccc1` (centres unmarked) is reported as 128%.
The remaining activity of `N#C/C(=C\c1ccc(O)c(O)c1)C(=O)NCc1ccccc1` is reported as 102%.
`c1ccc(-c2cnc(Nc3ccc(OCCN4CCCC4)cc3)s2)cc1` has a remaining activity of 56.6%.
With `Nc1cccc(-c2cc3c(Oc4cccc(O)c4)ncnc3[nH]2)c1` the remaining activity was 113%.
`O=c1cc(-c2cccc3c2Sc2ccccc2S3)oc(N2CCOCC2)c1` gave a remaining activity of 112%.

Block 4 — organism: Sarcocystis neurona; read-out: parasite growth; tested at: 10 µM; time: 96 h; setting: second screen; relative to: untreated
`COc1cc(/C=C/c2ccc(O)cc2)cc(OC)c1`: “log2 fold change” 1.6.
Under “log2 fold change”, `CC(=O)[C@]1(O)Cc2c(O)c3c(c(O)c2[C@@H](O[C@H]2C[C@H](N)[C@H](O)[C@H](C)O2)C1)C(=O)c1ccccc1C3=O` is recorded as -6.26.
`CC[C@]1(O)C[C@H]2CN(CCc3c([nH]c4ccccc34)[C@@](C(=O)OC)(c3cc4c(cc3OC)N(C=O)[C@H]3[C@@](O)(C(=O)OC)[C@H](OC(C)=O)[C@]5(CC)C=CCN6CC[C@]43[C@@H]65)C2)C1`: “log2 fold change” 0.29.
Under “log2 fold change”, `CO[C@@]1(NC(=O)Cc2cccs2)C(=O)N2C(C(=O)O)=C(COC(N)=O)CS[C@@H]21` is recorded as 0.24.
`O=C(O)CCNC(=O)c1ccc(/N=N/c2ccc(O)c(C(=O)O)c2)cc1` — result for “log2 fold change”: 0.24.

For quick reference, copied from above (block 1):
For Serine/threonine-protein kinase RIO2 (RIOK2, Homo sapiens, UniProt Q9BVS4): remaining binding read 90%.
The remaining binding was 89% (BMP-2-inducible protein kinase (BMP2K, Homo sapiens, UniProt Q9NSY1)).
